Results of several laboratories.
Protocols differ between the studies behind these lines. “And” joins repeats or separate records; there may be more than shown. ± marks the error that the study gave.
Urease subunit alpha: Urease subunit alpha (Sporosarcina pasteurii, UniProt P41020)
UniProt P41020, sequence (whole entry, looked up): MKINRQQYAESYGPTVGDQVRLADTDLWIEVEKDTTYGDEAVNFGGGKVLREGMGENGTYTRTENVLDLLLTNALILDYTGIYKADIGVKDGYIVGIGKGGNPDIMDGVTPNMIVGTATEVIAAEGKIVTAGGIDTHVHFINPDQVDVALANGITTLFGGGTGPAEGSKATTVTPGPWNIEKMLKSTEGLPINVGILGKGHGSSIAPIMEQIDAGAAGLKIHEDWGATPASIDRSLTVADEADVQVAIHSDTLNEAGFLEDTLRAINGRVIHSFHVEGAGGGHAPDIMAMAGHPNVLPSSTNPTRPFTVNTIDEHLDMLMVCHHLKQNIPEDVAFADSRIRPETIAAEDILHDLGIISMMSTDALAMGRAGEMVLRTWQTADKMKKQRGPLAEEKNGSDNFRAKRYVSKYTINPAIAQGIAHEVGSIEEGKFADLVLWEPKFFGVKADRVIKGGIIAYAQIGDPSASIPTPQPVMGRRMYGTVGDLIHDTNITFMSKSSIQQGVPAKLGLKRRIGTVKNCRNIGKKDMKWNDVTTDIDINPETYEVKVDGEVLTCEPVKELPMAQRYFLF
F12: Coagulation factor XII (F12, Homo sapiens, UniProt P00748)
UniProt P00748, sequence (whole entry, looked up): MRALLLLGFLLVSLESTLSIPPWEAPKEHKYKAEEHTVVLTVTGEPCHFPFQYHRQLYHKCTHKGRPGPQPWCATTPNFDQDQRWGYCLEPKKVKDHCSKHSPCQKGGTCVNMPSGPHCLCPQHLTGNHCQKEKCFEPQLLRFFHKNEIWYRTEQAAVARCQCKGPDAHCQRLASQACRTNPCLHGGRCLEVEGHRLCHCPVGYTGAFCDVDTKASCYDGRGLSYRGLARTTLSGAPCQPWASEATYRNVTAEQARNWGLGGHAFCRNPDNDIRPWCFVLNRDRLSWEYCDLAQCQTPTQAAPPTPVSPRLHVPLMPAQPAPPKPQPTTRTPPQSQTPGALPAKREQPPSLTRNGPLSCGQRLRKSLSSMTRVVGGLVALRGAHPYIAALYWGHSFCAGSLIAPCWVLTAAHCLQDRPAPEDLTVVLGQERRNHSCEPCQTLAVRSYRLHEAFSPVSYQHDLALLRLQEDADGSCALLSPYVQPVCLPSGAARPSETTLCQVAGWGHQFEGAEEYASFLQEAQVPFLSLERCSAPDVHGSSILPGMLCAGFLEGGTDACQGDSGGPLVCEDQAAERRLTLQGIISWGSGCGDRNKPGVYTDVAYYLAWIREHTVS
Serotonin N-acetyltransferase: Serotonin N-acetyltransferase (Ovis aries, UniProt Q29495)
UniProt Q29495, sequence (whole entry, looked up): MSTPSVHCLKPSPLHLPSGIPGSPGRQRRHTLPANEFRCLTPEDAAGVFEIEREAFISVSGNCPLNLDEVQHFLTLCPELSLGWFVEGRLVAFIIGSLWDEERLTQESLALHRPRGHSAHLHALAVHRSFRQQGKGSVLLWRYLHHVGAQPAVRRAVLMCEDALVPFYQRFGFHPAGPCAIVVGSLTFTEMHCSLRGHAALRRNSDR
HSD17B2: 17-beta-hydroxysteroid dehydrogenase type 2 (HSD17B2, Homo sapiens, UniProt P37059)
UniProt P37059, sequence (whole entry, looked up): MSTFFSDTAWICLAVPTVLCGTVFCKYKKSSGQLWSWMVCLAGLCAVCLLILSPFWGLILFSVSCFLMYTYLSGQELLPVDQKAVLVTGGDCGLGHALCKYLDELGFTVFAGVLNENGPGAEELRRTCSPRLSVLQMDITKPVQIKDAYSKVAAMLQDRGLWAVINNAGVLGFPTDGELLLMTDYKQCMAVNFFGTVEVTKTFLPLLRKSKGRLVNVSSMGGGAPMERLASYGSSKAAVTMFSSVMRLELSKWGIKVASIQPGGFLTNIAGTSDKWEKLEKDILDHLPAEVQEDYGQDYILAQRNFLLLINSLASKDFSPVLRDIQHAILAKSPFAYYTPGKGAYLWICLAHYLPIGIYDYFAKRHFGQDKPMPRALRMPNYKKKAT
MAL12: Alpha-glucosidase MAL12 (MAL12, Saccharomyces cerevisiae S288c, UniProt P53341)
UniProt P53341, sequence (whole entry, looked up): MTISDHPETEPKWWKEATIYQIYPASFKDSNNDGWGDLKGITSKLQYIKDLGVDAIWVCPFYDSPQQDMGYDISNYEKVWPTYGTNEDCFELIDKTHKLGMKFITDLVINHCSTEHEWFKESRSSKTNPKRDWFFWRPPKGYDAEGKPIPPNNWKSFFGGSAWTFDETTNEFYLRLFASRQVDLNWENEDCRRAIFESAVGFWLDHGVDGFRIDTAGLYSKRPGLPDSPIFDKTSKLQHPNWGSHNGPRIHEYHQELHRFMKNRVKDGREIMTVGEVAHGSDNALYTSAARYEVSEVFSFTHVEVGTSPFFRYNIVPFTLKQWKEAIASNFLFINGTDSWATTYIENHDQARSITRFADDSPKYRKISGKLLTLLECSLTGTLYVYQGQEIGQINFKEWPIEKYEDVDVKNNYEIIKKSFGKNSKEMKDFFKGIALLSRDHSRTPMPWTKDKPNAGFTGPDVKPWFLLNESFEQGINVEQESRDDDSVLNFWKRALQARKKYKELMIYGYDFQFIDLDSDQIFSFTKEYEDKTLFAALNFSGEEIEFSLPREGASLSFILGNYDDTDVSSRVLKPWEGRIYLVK
Pancreatic alpha-amylase: Pancreatic alpha-amylase (Homo sapiens, UniProt P04746)
UniProt P04746, sequence (whole entry, looked up): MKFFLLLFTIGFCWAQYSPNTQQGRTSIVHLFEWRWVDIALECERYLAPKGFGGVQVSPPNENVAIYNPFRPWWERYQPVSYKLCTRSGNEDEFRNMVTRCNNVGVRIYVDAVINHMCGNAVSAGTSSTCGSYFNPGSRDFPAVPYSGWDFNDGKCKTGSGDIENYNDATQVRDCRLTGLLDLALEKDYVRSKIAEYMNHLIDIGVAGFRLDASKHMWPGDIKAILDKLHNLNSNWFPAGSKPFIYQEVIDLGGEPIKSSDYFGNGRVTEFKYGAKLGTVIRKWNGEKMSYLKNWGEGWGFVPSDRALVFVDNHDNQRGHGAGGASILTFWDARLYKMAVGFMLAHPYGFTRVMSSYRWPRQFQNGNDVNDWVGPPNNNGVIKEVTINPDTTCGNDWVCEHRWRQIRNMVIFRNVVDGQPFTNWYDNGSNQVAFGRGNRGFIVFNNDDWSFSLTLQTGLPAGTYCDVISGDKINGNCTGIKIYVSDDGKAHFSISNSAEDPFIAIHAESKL
EGFR: Epidermal growth factor receptor (EGFR, Homo sapiens, UniProt P00533)
Nuclear receptor subfamily 2 group C member 2 ligand-binding domain: Nuclear receptor subfamily 2 group C member 2, ligand-binding domain (Homo sapiens, UniProt P49116)
UniProt P49116, sequence (whole entry, looked up): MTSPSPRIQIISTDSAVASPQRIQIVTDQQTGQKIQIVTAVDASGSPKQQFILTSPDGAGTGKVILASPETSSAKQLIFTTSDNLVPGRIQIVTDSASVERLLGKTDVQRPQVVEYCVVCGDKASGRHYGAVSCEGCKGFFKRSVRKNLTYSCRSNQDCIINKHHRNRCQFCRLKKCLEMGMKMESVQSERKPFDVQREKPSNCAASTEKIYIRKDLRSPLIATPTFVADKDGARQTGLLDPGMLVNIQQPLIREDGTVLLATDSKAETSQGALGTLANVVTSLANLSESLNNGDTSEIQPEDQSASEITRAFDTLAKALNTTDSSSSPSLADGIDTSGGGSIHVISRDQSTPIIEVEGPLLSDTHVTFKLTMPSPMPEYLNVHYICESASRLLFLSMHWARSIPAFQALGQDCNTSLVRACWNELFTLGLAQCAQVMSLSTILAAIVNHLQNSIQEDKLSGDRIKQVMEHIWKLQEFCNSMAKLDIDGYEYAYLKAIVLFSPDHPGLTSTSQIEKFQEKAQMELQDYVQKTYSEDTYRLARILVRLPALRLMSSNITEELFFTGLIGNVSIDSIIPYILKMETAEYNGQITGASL
Low molecular weight phosphotyrosine protein phosphatase isoform A: Low molecular weight phosphotyrosine protein phosphatase, isoform A (Mus musculus, UniProt Q9D358)
UniProt Q9D358, sequence (whole entry, looked up): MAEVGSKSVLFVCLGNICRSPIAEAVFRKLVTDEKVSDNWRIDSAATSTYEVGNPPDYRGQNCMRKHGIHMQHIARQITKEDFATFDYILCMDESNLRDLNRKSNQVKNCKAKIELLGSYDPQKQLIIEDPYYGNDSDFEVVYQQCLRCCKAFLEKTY
PSMB7: Proteasome subunit beta type-7 (PSMB7, Homo sapiens, UniProt Q99436)
UniProt P24462, sequence (whole entry, looked up): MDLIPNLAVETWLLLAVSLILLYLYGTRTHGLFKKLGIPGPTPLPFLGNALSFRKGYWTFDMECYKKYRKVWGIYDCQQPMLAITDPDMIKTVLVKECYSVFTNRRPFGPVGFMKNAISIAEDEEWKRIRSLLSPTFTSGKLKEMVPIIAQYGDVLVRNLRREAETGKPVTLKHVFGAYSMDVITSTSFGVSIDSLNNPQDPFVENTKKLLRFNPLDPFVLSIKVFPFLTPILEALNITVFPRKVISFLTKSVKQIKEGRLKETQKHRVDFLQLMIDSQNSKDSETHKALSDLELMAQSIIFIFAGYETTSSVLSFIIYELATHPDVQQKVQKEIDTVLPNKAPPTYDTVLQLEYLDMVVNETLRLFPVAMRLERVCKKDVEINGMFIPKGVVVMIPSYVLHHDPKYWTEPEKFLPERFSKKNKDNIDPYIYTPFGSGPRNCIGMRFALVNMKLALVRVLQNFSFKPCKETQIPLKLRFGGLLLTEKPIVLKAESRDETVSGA
UniProt Q99436, sequence (whole entry, looked up): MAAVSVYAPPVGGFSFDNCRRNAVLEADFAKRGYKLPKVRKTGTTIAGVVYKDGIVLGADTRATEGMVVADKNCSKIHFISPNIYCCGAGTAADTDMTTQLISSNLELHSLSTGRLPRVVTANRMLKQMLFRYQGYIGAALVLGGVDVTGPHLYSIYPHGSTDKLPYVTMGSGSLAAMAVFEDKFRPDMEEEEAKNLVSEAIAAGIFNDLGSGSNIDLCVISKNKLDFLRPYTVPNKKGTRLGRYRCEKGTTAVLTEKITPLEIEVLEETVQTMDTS
UniProt Q04206, sequence (whole entry, looked up): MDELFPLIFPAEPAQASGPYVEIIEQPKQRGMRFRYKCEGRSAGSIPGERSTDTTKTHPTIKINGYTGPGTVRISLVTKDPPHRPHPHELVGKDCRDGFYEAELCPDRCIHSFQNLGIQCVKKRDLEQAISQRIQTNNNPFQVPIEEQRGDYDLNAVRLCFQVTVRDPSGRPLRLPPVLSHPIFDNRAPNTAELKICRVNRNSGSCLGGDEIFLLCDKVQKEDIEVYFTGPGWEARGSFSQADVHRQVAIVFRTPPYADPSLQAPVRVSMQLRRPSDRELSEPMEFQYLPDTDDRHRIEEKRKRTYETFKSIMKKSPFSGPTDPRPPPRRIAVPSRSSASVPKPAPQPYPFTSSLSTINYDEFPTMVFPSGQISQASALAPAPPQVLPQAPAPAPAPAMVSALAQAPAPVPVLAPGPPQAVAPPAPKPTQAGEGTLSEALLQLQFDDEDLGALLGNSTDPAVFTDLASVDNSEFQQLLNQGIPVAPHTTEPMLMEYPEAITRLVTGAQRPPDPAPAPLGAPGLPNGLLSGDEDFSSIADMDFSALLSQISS

With `Cc1ccc(NC(=S)N/N=C/C=C/c2ccc(F)cc2)c(C)c1` the IC50 was 7 ± 0.6 µM (Urease subunit alpha; enzyme activity, indophenol method).
With `O=Cc1ccc([N+](=O)[O-])c(N2CCOCC2)c1` the EC50 was over 1000 µM (YWHAG/RELA, phospho-Ser45 p65 peptide (Homo sapiens, UniProt P61981+Q04206); ternary complex formation, stabilizer, fluorescence anisotropy).
`Cc1cc(C(=O)NCc2ccc(CN)cc2)c(C)n1Cc1ccc(Cn2ccccc2=O)cc1` gave an IC50 of over 10 µM (F12).
`O=C1/C(=C2/C(=O)N(Cc3ccc(F)cc3)c3ccccc32)SC(=S)N1CCCCO` gave an IC50 of over 60 µM (Serotonin N-acetyltransferase; inhibitor, stopped-flow UV; added: serotonin 100 µM, acetyl-CoA 100 µM).
The IC50 of `O=C(Oc1cc(O)cc2c1C[C@@H](OC(=O)c1cc(O)c(O)c(O)c1)[C@@H](c1cc(O)c(O)c(O)c1)O2)c1cc(O)c(O)c(O)c1` is reported as 0.05 ± 0.003 µM (PTPN22 (Homo sapiens, UniProt Q9Y2R2); pH 6.5).
`O=C(O)c1ccc(NS(=O)(=O)c2ccc(Cl)c(Cl)c2)c2ncccc12` gave an IC50 of over 100 µM (HSD17B2; enzyme activity, inhibitor; added: β-estradiol).
For `COc1cc(/C=N/n2c(C)nc3ccc(C)cc3c2=O)cc([N+](=O)[O-])c1O`, the IC50 was 55 ± 2.88 µM (MAL12; enzyme activity, inhibitor; Saccharomyces cerevisiae; added: 4-nitrophenyl glucopyranoside).
The IC50 of `CC[C@H](C)[C@H](NC(=O)[C@H](Cc1ccccc1)NC(=O)[C@H](Cc1ccc(O)cc1)NC(=O)[C@@H]1CCCN1C(=O)[C@@H](N)Cc1ccc(O)cc1)C(=O)N1CCC[C@H]1C(=O)N[C@@H](CC(C)C)C(=O)NCC(=O)N[C@H](CCCCN)C(=O)NCC(=O)N[C@@H](CCC(=O)O)C(=O)N[C@H](C(=O)N[C@@H](CC(N)=O)C(=O)N[C@@H](CC(C)C)[C@@H](O)CC(=O)N[C@H](C(=O)N[C@@H](C)C(=O)N[C@@H](CCC(=O)O)C(=O)N1CCC[C@@H]1C(=O)N[C@@H](CCCCNC(=O)CCC(=O)O[C@H]1CC[C@@]2(C)C(=CC[C@H]3[C@@H]4CC[C@H]([C@H](C)CCCC(C)C)[C@@]4(C)CC[C@@H]32)C1)C(N)=O)C(C)C)C(C)C` is reported as 5e-05 µM (Beta-secretase 1 (BACE1, Homo sapiens, UniProt P56817); Aβ40 lowering, AlphaLISA; HEK293 APP695).
`CC(C)Cn1c(=O)n(C)c(=O)c2c1nc(Cc1cccc3ccccc13)c(=O)n2CCCCO` has an IC50 of 0.548 µM (Monocarboxylate transporter 1 (Slc16a1, Mus musculus, UniProt P53986); lactate transport; MCF7 expressing Slc16a1; 10 min, added: [14C]lactate).
`COc1cc(/C=N/n2c(C)nc3ccc(Br)cc3c2=O)ccc1O` has an IC50 of 468.8 ± 4.24 µM (Pancreatic alpha-amylase; enzyme activity, inhibitor).
With `CCS(=O)(=O)c1ncc(Cl)c(C(=O)Oc2cccc(C)c2)n1` the IC50 was 1 µM (GPBAR1 (Homo sapiens, UniProt Q8TDU6); antagonist).
The IC50 of `OCc1ccc(Nc2ccc3c(Nc4cccc(C(F)(F)F)c4)ncnc3c2)cc1` is reported as 0.00251 µM (EGFR; enzyme activity, inhibitor).
The Kd of `CCOCC(O)COc1ccc(NC(=O)CC[S+](C)C)cc1` (stereo not drawn) is reported as 0.00485 µM (Nuclear receptor subfamily 2 group C member 2 ligand-binding domain; SPR imaging).
`Cc1nc2ccccc2c(=O)n1NC(=O)CSc1nc2ccccc2c(=O)n1-c1ccccc1` has an IC50 of 43.7 ± 2.12 µM (MAL12; enzyme activity, inhibitor; Saccharomyces cerevisiae; added: 4-nitrophenyl glucopyranoside).
`c1ccc(-c2cc(NCCCN3CCOCC3)c3ccccc3n2)cc1` has an IC50 of 7.68 µM (Low molecular weight phosphotyrosine protein phosphatase isoform A; enzyme activity, inhibitor; added: OMFP substrate).
The IC50 of `CN1CCN(c2ccc(Nc3ncc4cc(C#N)c(=O)n(C5CCCC5)c4n3)cc2)CC1` is reported as 0.104 µM (EPHA4 (Homo sapiens, UniProt P54764)).
With `C=CC(=O)Nc1cc(Nc2nccc(Nc3cc(Cl)c(F)cc3C(C)(C)O)n2)c(OC)cc1N1CC[C@@H](N(C)C)C1` the IC50 was 0.166 µM (EGFR; EGFR phosphorylation, HTRF; H2073^WT cells; 2 h, added: EGF).
For `Cc1cnc(C(=O)N[C@H]2CCCCC/C=C\[C@@H]3C[C@@]3(C(=O)NS(=O)(=O)C3CC3)NC(=O)[C@@H]3C[C@@H](Oc4nc5ccccc5c5ccccc45)CN3C2=O)cn1`, the IC50 was 5 µM and 5.5 µM and 5.51 µM (Cytochrome P450 3A7 (CYP3A7, Homo sapiens, UniProt P24462); formation, 16α-hydroxy DHEA-S, inhibitor; recombinant enzyme; 30 min, NADPH preincubation, added: DHEA-S 5 µM).
With `Cc1nc2ccc(Cl)cc2c(=O)n1NC1=NC(=O)CS1` the IC50 was 458 ± 9.19 µM (Pancreatic alpha-amylase; enzyme activity, inhibitor).
With `O=C(O)[C@@H]1C[C@H](CP(=O)(O)O)CCN1` the IC50 was 0.2 µM (NMDA receptor (rat); radioligand binding, antagonist).
With `COCc1nn(Cc2ccc(Cn3ccccc3=O)cc2)cc1C(=O)NCc1nccc(Cl)c1F` the IC50 was over 40 µM (F12).
The IC50 of `Cc1nn(-c2nc3c(F)cc(F)cc3s2)c(O)c1C(c1ccc(C(F)(F)F)cc1)c1c(C)nn(-c2nc3c(F)cc(F)cc3s2)c1O` is reported as 8.4 ± 0.8 µM (CGAS (Homo sapiens, UniProt Q8N884); enzyme activity, inhibitor, pyrophosphatase-coupled; added: ATP and GTP 80 µM).
`c1ccc(-c2cc(NCCN3CCCCC3)c3ccccc3n2)cc1` has an IC50 of 3.49 µM (Low molecular weight phosphotyrosine protein phosphatase isoform A; enzyme activity, inhibitor; added: OMFP substrate).
The IC50 of `COc1ccc(C[C@H](NC(=O)[C@H](C)NC(=O)CN2CCOCC2)C(=O)N[C@@H](CCC2CCCCC2)C(=O)[C@@]2(C)CO2)cc1` is reported as over 10 µM (PSMB7; enzyme activity, cell-based).
`COc1ccnc(CNC(=O)c2cn(Cc3ccc(Cn4ccccc4=O)cc3)nc2C2CC2)c1F` has an IC50 of over 40 µM (F12).
For `O=C(O)CCCCCN1C(=O)N/C(=C2\C(=O)N(Cc3ccc(F)cc3)c3ccccc32)C1=O`, the IC50 was 31 ± 12 µM (Serotonin N-acetyltransferase; inhibitor, stopped-flow UV; added: serotonin 100 µM, acetyl-CoA 100 µM).
With `COc1cc(NC(C)CCCN)c2ncccc2c1` (stereo not drawn) the Kd was 0.0163 µM (Nuclear receptor subfamily 2 group C member 2 ligand-binding domain; SPR imaging).
The IC50 of `COc1c(Cl)cccc1Nc1c(-c2ccncc2OC[C@@H]2COCCO2)[nH]c2c1C(=O)NCC2` is reported as 0.13 µM (MAPK14 (Homo sapiens, UniProt Q16539); kinase activity, inhibitor, TR-FRET; median value, added: ATP 2 mM).
With `N=C(N)c1ccc(-c2ccc(-c3ccc(C(=N)N)cc3)o2)cc1` the IC50 was ~30 µM and 29.8 µM (F12; inhibitor; pH 7.4).
With `O=C(O)Cc1ccc(CN2C(=O)/C(=C3/C(=O)N(Cc4ccc(F)cc4)c4ccccc43)SC2=S)cc1` the IC50 was 9.9 ± 11 µM (Serotonin N-acetyltransferase; inhibitor, stopped-flow UV; added: serotonin 100 µM, acetyl-CoA 100 µM).
The IC50 of `O=C(O)c1ccc(NS(=O)(=O)c2ccc(Cl)c(Cl)c2)cc1F` is reported as over 100 µM (HSD17B2; enzyme activity, inhibitor; added: β-estradiol).
With `COC1CCC(C[C@H](NC(=O)c2cnc(C)s2)C(=O)N[C@@H](CC(C)C)C(=O)N[C@H](/C=C/S(C)(=O)=O)Cc2ccc(CN)cc2)CC1` (stereo partly drawn) the IC50 was 0.281 µM (PSMB7; inhibitor, biochemical).
With `[Fe+2].c1ccc(CN(CCN(Cc2ccccn2)Cc2ccccn2)Cc2ccccn2)cc1` the IC50 was over 1000 µM (Proteasome subunit beta type-7, in 20S proteasome (PSMB7, Homo sapiens, UniProt Q99436); trypsin-like activity, inhibitor, purified 20S proteasome; pH 7.4, added: 20 µM Bz-VGR-AMC).
The IC50 of `Clc1ccccc1-c1cc(NCCCN2CCCCC2)c2ccccc2n1` is reported as 11.6 µM (Low molecular weight phosphotyrosine protein phosphatase isoform A; enzyme activity, inhibitor; added: OMFP substrate).
`CC[C@@H]1[C@H](F)C(=O)N[C@@H]1COc1nccc2cc(C(N)=O)c(OC)cc12` gave an IC50 of over 5 µM (CDK14 (Homo sapiens, UniProt O94921); ATP-site binding, ActivX KiNativ profiling; THP-1 cell lysate; Lys1 PFTAIRE1 probe site).
With `Cc1ccc(S(=O)(=O)Nc2ccc(C)cc2NS(=O)(=O)c2cccc(C(F)(F)F)c2)cc1` the IC50 was 12.9 µM (Protein lin-28 homolog B (LIN28B, Homo sapiens, UniProt Q6ZN17); pre-let-7d binding to Lin28B, inhibitor).
The IC50 of `NC(N)=S` is reported as 19.4 ± 0.2 µM (Urease subunit alpha; enzyme activity, indophenol method).
`COc1ccc(F)c(CNC(=O)c2cn(Cc3ccc(Cn4ccccc4=O)cc3)nc2CN(C)C)c1F` gave an IC50 of over 40 µM (F12).
`CC(=O)c1ccc2cc(S(=O)(=O)Nc3ccccc3)ccc2c1` has an IC50 of 5.87 µM (STAT3 (Homo sapiens, UniProt P40763); tyrosine phosphorylation, inhibitor, ELISA, measured: phospho-Tyr705).

Some of these lines once more:
The IC50 of `OCc1ccc(Nc2ccc3c(Nc4cccc(C(F)(F)F)c4)ncnc3c2)cc1` is reported as 0.00251 µM (EGFR; enzyme activity, inhibitor).
The Kd of `CCOCC(O)COc1ccc(NC(=O)CC[S+](C)C)cc1` (stereo not drawn) is reported as 0.00485 µM (Nuclear receptor subfamily 2 group C member 2 ligand-binding domain; SPR imaging).
`Cc1nc2ccccc2c(=O)n1NC(=O)CSc1nc2ccccc2c(=O)n1-c1ccccc1` has an IC50 of 43.7 ± 2.12 µM (MAL12; enzyme activity, inhibitor; Saccharomyces cerevisiae; added: 4-nitrophenyl glucopyranoside).
`c1ccc(-c2cc(NCCCN3CCOCC3)c3ccccc3n2)cc1` has an IC50 of 7.68 µM (Low molecular weight phosphotyrosine protein phosphatase isoform A; enzyme activity, inhibitor; added: OMFP substrate).
